Assay results of several laboratories.
Compare with care: the assays were run in different laboratories.

Structure (SMILES) | target or system | test | test system | setting | quantity | result
CCOc1c([C@H](C)n2nc(C)c3c(N)ncnc32)cc(Cl)c(F)c1[C@@H]1CNC(=O)C1 | – | item: QTcF ≤450 ms | previously treated B-cell malignancy | oral, 5 mg once daily, baseline QTcF ≤450 ms | patients | 100%
FC(F)(F)c1ccc(CNc2ccc(Cc3c[nH]c4ncc(Cl)cc34)cn2)cn1 | – | item: skin hypopigmentation | non-TGCT solid tumour patients | oral, 1000 mg/day, all grades | patients with treatment-related adverse event | 4%
C[C@@H](c1ccc2nccn2c1)n1nnc2ncc(-c3cnn(C)c3)nc21 | – | item: treatment-related grade ≥3 Paronychia | EGFR-mutant MET-altered NSCLC | oral, dose not given, all | patients with adverse events | 2%
COc1cc(Nc2ncc3c(n2)-c2ccc(Cl)cc2C(c2c(F)cccc2OC)=NC3)ccc1C(=O)O | – | item: increased ALT, grade 3 | cancer patients, phase 1/2 | oral, dose not given, with: pembrolizumab | patients with adverse event | 4%
NC(=O)c1cccc(N)c1 | OCI-Ly1 | – | – | 1 µM, 120 h | viability | 77%
Cc1cc(-c2nnc(N)nc2-c2ccc(F)cc2)cc(Cl)n1 | – | item: rash | post-IO NSCLC patients | oral, 100 mg once daily, treatment-related, grade 1 | patients with immune-mediated AE | 5.9%
CCN(CC)Cc1ccc2cc(COC(=O)Nc3ccc(C(=O)NO)cc3)ccc2c1 | OCI-Ly1 | – | – | 1 µM, 120 h | viability | 1.3%
CNC(=O)c1cc(Oc2ccc(NC(=O)Nc3cc(C(C)(C)C)nn3-c3ccc4ncccc4c3)c(F)c2)ccn1 | – | – | patients | oral, dose not given, cycles 1 and 2, Low Cmax subgroup | patients with visual abnormalities | 18%
CNC(=O)c1ccc(-c2cnc3ncc(Cc4ccc5ncccc5c4)n3n2)cc1F | – | item: Pruritus | cancer patients | oral, 600 mg twice daily, all expansion cohorts, grade 3-4 | patients with adverse event | 0%
Cc1cc(NC2CCN(C(=O)OC3CCN(C(=O)/C=C/CN(C)C)C3)CC2)n2ncc(C(C)C)c2n1 (stereo not drawn) | – | Phase I dose escalation CTCAE v4.0, item: maculo-papular rash | patients with advanced solid tumours | dose not given, QD dosing grade 3 or higher | patients with adverse event | 0%
O=C(Nc1nc2cccc(-c3ccc(CN4CCS(=O)(=O)CC4)cc3)n2n1)C1CC1 | – | – | rheumatoid arthritis patients | oral, 100 mg twice daily, 4 weeks, TEAE regardless of relatedness | patients with Cystitis | 0%
C=CC(=O)NC1CCN(c2ncc3ncnc(Nc4ccc(Oc5ccc6c(c5)ncn6C)c(C)c4)c3n2)CC1 | – | – | male patients | oral, dose not given, on-treatment adverse events | patients with upper abdominal pain | 0%

Some of these lines once more:
Structure (SMILES) | target or system | test | test system | setting | quantity | result
C=CC(=O)NC1CCN(c2ncc3ncnc(Nc4ccc(Oc5ccc6c(c5)ncn6C)c(C)c4)c3n2)CC1 | – | – | male patients | oral, dose not given, on-treatment adverse events | patients with upper abdominal pain | 0%
